Results collected from several papers.
± marks the error that the study gave.
Method: steady-state kinetics
B1: SUOX R529M/V531M/Y400N (Homo sapiens, UniProt P51687); chain ESTHIYTKEEVSSHTSPETGIWVTLGSEVFDVTEFVDLHPGGPSKLMLAAGGPLEPFWALYAVHNQSHVRELLAQYKIGELNPEDKVAPTVETSDPYADDPVRHPALKVNSQRPFNAEPPPELLTENYITPNPIFFTRNHLPVPNLDPDTYRLHVVGAPGGQSLSLSLDDLHNFPRYEITVTLQCAGNRRSEMTQVKEVKGLEWRTGAISTARWAGARLCDVLAQAGHQLCETEAHVCFEGLDSDPTGTAYGASIPLARAMDPEAEVLLAYEMNGQPLPRDHGFPVRVVVPGVVGARHVKWLGRVSVQPEESYSHWQRRDNKGFSPSVDWETVDFDSAPSIQELPVQSAITEPRDGETVESGEVTIKGYAWSGGGRAVIRVDVSLDGGLTWQVAKLDGEEQRPRKAWAWRLWQLKAPVPAGQKELNIVCKAVDDGYNVQPDTVAPIWNLMGMLSNAWHRVHVYVSP
B2: protein Y93S (Thermus thermophilus, UniProt Q5SKR5); chain MSAPKPFVIGIAGGTASGKTTLAQALARTLGERVALLPMDHYYKDLGHLPLEERLRVNYDHPDAFDLALYLEHAQALLRGLPVEMPVYDFRASTRSPRRTPVRPAPVVILEGILVLYPKELRDLMDLKVFVDADADERFIRRLKRDVLERGRSLEGVVAQYLEQVKPMHLHFVEPTKRYADVIVPRGGQNPVALEMLAAKALARLARMGAA
B3: protein (Sinorhizobium meliloti, UniProt Q92WA4); chain MNYFRNDFRGTLFGTNEATDSLRRRSLQKRILVTGGAGFLGSHLCELLLGAGHEVICLDNFSTGLRRNIAPLKRFDTFRVIAHDVVEPIDLEVDEIYNLACPASPPHYQADPIQTTKTCVIGSLNLLDLAARRGARIFQASTSEIYGDPHVHPQVESYWGNVNPFGPRSCYDEGKRCAETLFFDFHKSHGVEIKIVRIFNTYGPRMRPDDGRVVSNFIVQALKGEDITIYGDGSQTRSFCFVEDLIDGFVRLMASPPSLTGPVNLGNPAEFTIGELAEEVIRLTGSRSKIVRRPLPVDDPRQRRPDISLATEELGWRPKVNLAEGLAHTIRYFDDLLSRSMRESAELV
B4: UGT1A9 (Homo sapiens, UniProt O60656); chain GKLLVVPMDGSHWFTMRSVVEKLILRGHEVVVVMPEVSWQLGRSLNCTVKTYSTSYTLEDLDREFKAFAHAQWKAQVRSIYSLLMGSYNDIFDLFFSNCRSLFKDKKLVEYLKESSFDAVFLDPFDNCGLIVAKYFSLPSVVFARGILCHYLEEGAQCPAPLSYVPRILLGFSDAMTFKERVRNHIMHLEEHLLCHRFFKNALEIASEILQTPVTEYDLYSHTSIWLLRTDFVLDYPKPVMPNMIFIGGINCHQGKPLPMEFEAYINASGEHGIVVFSLGSMVSEIPEKKAMAIADALGKIPQTVLWRYTGTRPSNLANNTILVKWLPQNDLLGHPMTRAFITHAGSHGVYESICNGVPMVMMPLFGDQMDNAKRMETKGAGVTLNVLEMTSEDLENALKAVINDKSYKENIMRLSSLHKDRPVEPLDLAVFWVEFVMRHKGAPHLRPAAHDLTWYQYHSLDVIGFLLAVVLTVAFITFKCCAYGYRKCLGKKGRVKKAHKSKTH
B5: Paox H64A (Mus musculus, UniProt Q8C0L6); chain MAFPGPRVLVVGSGIAGLGAAQKLCSHRAAPHLRVLEATASAGGRIRSERCFGGVVELGAHWIAGPSQDNPVFQLAAEFGLLGEKELSEENQLVDTGGHVALPSMIWSSSGTSVSLELMTEMARLFYGLIERTREFLNESETPMASVGEFLKKEISQQVASWTEDDEDTRKRKLAILNTFFNIECCVSGTHSMDLVALAPFGEYTVLPGLDCILAGGYQGLTDRILASLPKDTVAFDKPVKTIHWNGSFQEAAFPGETFPVLVECEDGARLPAHHVIVTVPLGFLKEHQDTFFEPPLPAKKAEAIKKLGFGTNNKIFLEFEEPFWEPDCQFIQVVWEDTSPLQDTALSLQDTWFKKLIGFLVQPSFESSHVLCGFIAGLESEFMETLSDEEVLLSLTQVLRRVTGNPQLPAAKSVRRSQWHSAPYTRGSYSYVAVGSTGDDLDLMAQPLPEDGTGTQLQVLFAGEATHRTFYSTTHGALLSGWREADRLVSLWDSQVEQSRPRL
B6: LYS12 D271N (Saccharomyces cerevisiae, UniProt P40495); chain SLTIGLIPGDGIGKEVIPAGKQVLENLNSKHGLSFNFIDLYAGFQTFQETGKALPDETVKVLKEQCQGALFGAVQSPTTKVEGYSSPIVALRREMGLFANVRPVKSVEGEKGKPIDMVIVRENTEDLYIKIEKTYIDKATGTRVADATKRISEIATRRIATIALDIALKRLQTRGQATLTVTHKSNVLSQSDGLFREICKEVYESNKDKYGQIKYNEQIVDSMVYRLFREPQCFDVIVAPNLYGDILSNGAAALVGSLGVVPSANVGPEIVIGEPCHGSAPDIAGKGIANPIATIRSTALMLEFLGHNEAAQDIYKAVDANLREGSIKTPDLGGKASTQQVVDDVLSRL
Chain of UniProt P10724 (whole entry, looked up): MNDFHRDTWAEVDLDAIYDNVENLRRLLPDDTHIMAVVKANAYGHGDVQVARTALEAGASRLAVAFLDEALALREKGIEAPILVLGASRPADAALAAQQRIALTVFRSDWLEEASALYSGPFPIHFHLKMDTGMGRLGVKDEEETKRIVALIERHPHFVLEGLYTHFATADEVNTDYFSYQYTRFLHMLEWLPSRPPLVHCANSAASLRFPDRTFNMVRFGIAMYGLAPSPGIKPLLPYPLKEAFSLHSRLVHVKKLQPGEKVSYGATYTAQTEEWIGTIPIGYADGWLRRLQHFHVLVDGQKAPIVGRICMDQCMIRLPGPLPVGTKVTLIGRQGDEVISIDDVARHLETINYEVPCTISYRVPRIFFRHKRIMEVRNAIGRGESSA
Chain of UniProt P07914 (whole entry, looked up): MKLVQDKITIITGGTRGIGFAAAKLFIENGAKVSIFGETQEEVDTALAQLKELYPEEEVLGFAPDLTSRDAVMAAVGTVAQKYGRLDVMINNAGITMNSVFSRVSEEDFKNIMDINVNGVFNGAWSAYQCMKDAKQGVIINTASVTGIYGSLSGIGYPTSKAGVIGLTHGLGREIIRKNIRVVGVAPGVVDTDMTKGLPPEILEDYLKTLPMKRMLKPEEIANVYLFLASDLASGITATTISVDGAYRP
Chain of UniProt P09950 (whole entry, unmodified, looked up): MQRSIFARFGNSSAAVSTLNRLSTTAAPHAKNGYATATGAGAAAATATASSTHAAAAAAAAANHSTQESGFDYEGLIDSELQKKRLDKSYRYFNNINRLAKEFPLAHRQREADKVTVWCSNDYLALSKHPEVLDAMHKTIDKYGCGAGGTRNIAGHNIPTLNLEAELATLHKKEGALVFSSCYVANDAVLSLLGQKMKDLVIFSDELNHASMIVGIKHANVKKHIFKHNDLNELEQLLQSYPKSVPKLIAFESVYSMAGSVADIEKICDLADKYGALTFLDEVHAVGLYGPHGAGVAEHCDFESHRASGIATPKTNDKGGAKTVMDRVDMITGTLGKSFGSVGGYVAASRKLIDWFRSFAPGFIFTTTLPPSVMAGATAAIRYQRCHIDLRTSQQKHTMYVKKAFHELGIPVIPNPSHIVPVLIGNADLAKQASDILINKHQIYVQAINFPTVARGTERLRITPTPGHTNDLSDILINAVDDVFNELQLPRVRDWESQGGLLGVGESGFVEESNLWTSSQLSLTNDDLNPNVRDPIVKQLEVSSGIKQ

Molecule = B1 (SUOX R529M/V531M/Y400N); substrate = O=[N+]([O-])O; pH = pH 7; temperature = 25 °C; added = dithionite-reduced methyl viologen; endpoint = kcat/Km; value = 35000 M⁻¹ s⁻¹
Molecule = B2 (protein Y93S); substrate = Nc1ccn([C@@H]2O[C@H](CO)[C@@H](O)[C@H]2O)c(=O)n1; pH = pH 7.2; temperature = 25 °C; notes = KCl 100 mM; added = ATP 100–200 µM; endpoint = kcat/Km; value = 32000 M⁻¹ s⁻¹
Molecule = alanine racemase (Geobacillus stearothermophilus, UniProt P10724); substrate = C[C@@H](N)C(=O)O; pH = pH 9; temperature = room temperature; added = NAD+ 10 mM; endpoint = kcat/Km; value = 1.6e+06 M⁻¹ s⁻¹
Molecule = BaiA1 (Clostridium scindens, UniProt P07914); substrate = NC(=O)c1ccc[n+]([C@@H]2O[C@H](COP(=O)(O)OP(=O)(O)OC[C@H]3O[C@@H](n4cnc5c(N)ncnc54)[C@H](O)[C@@H]3O)[C@@H](O)[C@H]2O)c1; pH = pH 8.7; temperature = 37 °C; notes = cofactor varied; added = glycocholic acid 1.4 mM; endpoint = kcat/Km; value = 17700 M⁻¹ s⁻¹
Molecule = B3 (protein); substrate = O=C(O)[C@H]1O[C@H](OP(=O)(O)OP(=O)(O)OC[C@H]2O[C@@H](n3ccc(=O)[nH]c3=O)[C@H](O)[C@@H]2O)[C@H](O)[C@@H](O)[C@@H]1O; pH = pH 7.6; temperature = 37 °C; added = NAD+ 1 mM; endpoint = kcat/Km; value = 18300 ± 200 M⁻¹ s⁻¹
Molecule = B4 (UGT1A9); substrate = COc1ccc(-c2oc3cc(O)cc(O)c3c(=O)c2OC)cc1O; pH = pH 7.4; temperature = 37 °C; endpoint = Km; value = 1.64 µM
Molecule = alanine aminopeptidase (Neisseria meningitidis, UniProt Q9JYV4); substrate = NC(=O)Cc1cc(=O)oc2cc(NC(=O)[C@@H](N)CCCCOCc3ccccc3)ccc12; pH = pH 7.5; temperature = 37 °C; endpoint = kcat/Km; value = 54000 ± 1000 M⁻¹ s⁻¹
Molecule = HEM1 (Saccharomyces cerevisiae, UniProt P09950); substrate = CC(C)(COP(=O)(O)OP(=O)(O)OC[C@H]1O[C@@H](n2cnc3c(N)ncnc32)[C@H](O)[C@@H]1OP(=O)(O)O)[C@@H](O)C(=O)NCCC(=O)NCCSC(=O)CCC(=O)O; pH = pH 7.4; temperature = 30 °C; endpoint = kcat/Km; value = 1000 M⁻¹ s⁻¹
Molecule = B5 (Paox H64A); substrate = c1ccc(CNCCCCNCc2ccccc2)cc1; pH = pH 8.6; temperature = 30 °C; endpoint = kcat/Km; value = 600 ± 100 M⁻¹ s⁻¹
Molecule = B6 (LYS12 D271N); substrate = O=C(O)CC[C@H](C(=O)O)[C@@H](O)C(=O)O; pH = pH 7.5; temperature = 25 °C; notes = potassium acetate 100 mM, substrate as Mg complex; added = NAD+ varied; Mg2+ 10 mM; endpoint = kcat/Km; value = 7200 ± 200 M⁻¹ s⁻¹

Repeated from above:
Molecule = HEM1 (Saccharomyces cerevisiae, UniProt P09950); substrate = CC(C)(COP(=O)(O)OP(=O)(O)OC[C@H]1O[C@@H](n2cnc3c(N)ncnc32)[C@H](O)[C@@H]1OP(=O)(O)O)[C@@H](O)C(=O)NCCC(=O)NCCSC(=O)CCC(=O)O; pH = pH 7.4; temperature = 30 °C; endpoint = kcat/Km; value = 1000 M⁻¹ s⁻¹
